Assay results of several laboratories.
± gives the spread as reported.
Cnr2: Cannabinoid receptor 2 (Cnr2, Mus musculus, UniProt P47936)
Oprk1: Kappa-type opioid receptor (Oprk1, Mus musculus, UniProt P33534)
EGFR L858R/T790M: Epidermal growth factor receptor (EGFR, Homo sapiens, UniProt P00533, L858R/T790M)

Structure (SMILES) = CCCC[C@H](NC(=O)CNC(=O)CNC(=O)c1ccc(NN)nc1)C(=O)N[C@H]1CC(=O)NCCCC[C@@H](C(N)=O)NC(=O)[C@H](Cc2c[nH]c3ccccc23)NC(=O)[C@H](CCCNC(=N)N)NC(=O)[C@@H](Cc2ccccc2)NC(=O)[C@H](Cc2c[nH]cn2)NC1=O [technetium-99m labelled]; system = C57 mouse, B16/F1 melanoma, intestines; conditions = intravenous, 4 h; endpoint = uptake; result = 1.88 ± 1.06 %ID
Structure (SMILES) = CN[C@](C)(C[18F])C(=O)O; tested on = SK-OV-3 tumour model; system = host not given, blood; conditions = 30 min, tumour-bearing; endpoint = tracer uptake; result = 2.3 %ID/g
Structure (SMILES) = Cc1cc2c(cc1Cl)-c1c(c(C(=O)NN3CCCCC3)nn1-c1ccc(Cl)cc1Cl)C2; tested on = Cnr2; assay = radioligand displacement; system = mouse brain and spleen homogenates; conditions = together with: [3H]CP-55,940; scale = baseline: Ki CB1 over Ki CB2; endpoint = selectivity ratio; result = 4.3
Structure (SMILES) = CNC(=O)C1OC(n2cnc3c(NCc4cccc(I)c4)ncnc32)C(O)C1O (centres unmarked); tested on = Organic anion transporter 3 (SLC22A8, Homo sapiens, UniProt Q8TCC7); assay = inhibitor; scale = baseline: OAT1 IC50 over OAT3 IC50; endpoint = selectivity ratio; result = ≥ 10 fold
Structure (SMILES) = COCCCN1CCc2c(Cc3ccc(Cl)cc3)[nH]c3c(OC(F)F)ccc(c23)C1=O; tested on = cAMP and cAMP-inhibited cGMP 3',5'-cyclic phosphodiesterase 10A, catalytic domain (PDE10A, Homo sapiens, UniProt Q9Y233); assay = enzyme activity; scale = baseline: IC50 PDE5A1 over PDE10A; endpoint = selectivity ratio; result = 176
Structure (SMILES) = CCN(Cc1ccccc1)C(=O)CCc1nc(CN2CCN(C(=O)Cc3ccc(OC)c(OC)c3)CC2)no1; tested on = Potassium voltage-gated channel subfamily KQT member 5 (KCNQ5, Homo sapiens, UniProt Q9NR82); assay = opener, whole-cell patch clamp; system = transfected cells; conditions = 10 µM; scale = baseline: control, towards hyperpolarisation; endpoint = activation midpoint shift; result = 24.4 mV
Structure (SMILES) = C[C@H]1[C@H]2CCC[C@]1(c1cccc(O)c1)CCN2CCc1ccccc1; tested on = Oprk1; assay = radioligand competition binding; system = CHO membranes; conditions = together with: [3H]diprenorphine; scale = baseline: Ki KOR over Ki MOR; endpoint = selectivity ratio; result = 14.6 fold
Structure (SMILES) = O=C(O[C@@H]1Cc2c(O)cc(O)cc2O[C@@H]1c1cc(O)c(O)c(O)c1)c1cc(O)c(O)c(O)c1; tested on = EGFR L858R/T790M; assay = kinase activity; scale = baseline: EGFR T790M/L858R over wild-type EGFR; endpoint = selectivity ratio; result = 0.97
Structure (SMILES) = CCCCCCCCC(=O)NCc1ccc(O)c(OC)c1; tested on = mAb 6-AT6; assay = antibody binding, indirect competitive ELISA; conditions = together with: coating antigen 3-OVA; endpoint = IC50; result = > 4 µg/mL
Structure (SMILES) = Nc1nc(Cl)nc2c1ncn2Cc1cc(OCC(F)F)cc(OC(F)F)c1; tested on = Dual specificity calcium/calmodulin-dependent 3',5'-cyclic nucleotide phosphodiesterase 1C (PDE1C, Homo sapiens, UniProt Q14123); assay = enzyme activity, inhibitor; scale = baseline: PDE1C over PDE8A1; endpoint = selectivity ratio; result = 562 fold
Structure (SMILES) = C[C@H](CCC(=O)N[C@H](CC(c1c[nH]c2ccc(Cl)cc12)c1c[nH]c2ccc(Cl)cc12)C(=O)O)[C@H]1CC[C@H]2[C@@H]3CC[C@@H]4C[C@H](O)CC[C@]4(C)[C@H]3CC[C@]12C; tested on = Beta-galactoside alpha-2,6-sialyltransferase 1 (ST6GAL1, Homo sapiens, UniProt P15907); scale = baseline: ST3GAL1 IC50 over ST6GAL1 IC50; endpoint = selectivity ratio; result = > 76
Structure (SMILES) = C=CC(=O)Nc1cccc(-c2cnc3[nH]cc(C(=O)NC(C)(C)C)c3n2)c1; tested on = Non-receptor tyrosine-protein kinase TYK2 (TYK2, Homo sapiens, UniProt P29597); assay = enzyme activity, inhibitor; scale = baseline: JAK3 over TYK2; endpoint = selectivity ratio; result = 282 fold
Structure (SMILES) = CC[C@@H]1NC(=O)[C@@H]2CSSC[C@@H]3NC(=O)[C@H](CCCCN)NC(=O)[C@@H]4CSSC[C@H](NC(=O)[C@H](CC(=O)O)NC(=O)[C@H](CCCCN)NC(=O)[C@@H]5CCCN5C(=O)[C@H]([C@@H](C)O)NC(=O)[C@H](CCCNC(=N)N)NC(=O)[C@@H](NC(=O)[C@H](CO)NC(=O)[C@H](C)N)CSSC[C@H](NC(=O)[C@H](CCCCN)NC(=O)CNC(=O)[C@H](Cc5ccc(O)cc5)NC(=O)[C@@H]5CCCN5C(=O)[C@H](CSSC[C@@H](C(N)=O)NC(=O)[C@H](CCCNC(=N)N)NC(=O)[C@H](CC(N)=O)NC3=O)NC(=O)CNC(=O)[C@H]([C@@H](C)O)NC(=O)[C@H](CCC(=O)O)NC(=O)[C@H](CCCCN)NC1=O)C(=O)N[C@@H](CCSC)C(=O)N[C@@H](CC(N)=O)C(=O)N[C@@H](CCCNC(=N)N)C(=O)N[C@@H](CCCCN)C(=O)N4)C(=O)N[C@@H](C)C(=O)N[C@@H](CC(=O)O)C(=O)N1CCC[C@H]1C(=O)N2; tested on = Potassium voltage-gated channel subfamily A member 3 (Kcna3, Mus musculus, UniProt P16390); assay = potassium current, inhibitor, whole-cell patch clamp; scale = baseline: IC50 Kv1.1 over IC50 Kv1.3; endpoint = selectivity ratio; result = > 2000 fold
Structure (SMILES) = CCC1(c2cccc(-c3cn(C)nc3C)c2)C2=C(Nc3n[nH]cc31)C(F)C(C)(C)CC2=O (single isomer, unassigned); tested on = Glycogen synthase kinase-3 alpha (GSK3A, Homo sapiens, UniProt P49840); assay = tau Thr231 phosphorylation; system = HEK293 expressing human tau; scale = baseline: IC50 GSK3β over IC50 GSK3α; endpoint = selectivity ratio; result = 37 fold
Structure (SMILES) = CCCCCCCCCCCCOc1c(O)cc(C(=O)OC2Cc3c(O)cc(O)cc3OC2c2cc(O)c(O)c(O)c2)cc1O (centres unmarked); tested on = EGFR L858R/T790M; assay = kinase activity; scale = baseline: EGFR T790M/L858R over wild-type EGFR; endpoint = selectivity ratio; result = 1.16
Structure (SMILES) = Cc1cc2c(cc1Cl)-c1c(c(C(=O)NC3C4(C)CCC(C4)C3(C)C)nn1-c1ccc(Cl)cc1Cl)C2 (centres unmarked); tested on = Cnr2; assay = radioligand displacement; system = mouse brain and spleen homogenates; conditions = together with: [3H]CP-55,940; scale = baseline: Ki CB1 over Ki CB2; endpoint = selectivity ratio; result = 36
Structure (SMILES) = N=C(N)NCCC[C@@H]1NC(=O)[C@H](CCCCNC(=O)CNC(=O)CNC(=O)CNC(=O)CC[C@H](NC(=O)CCOCCOCCOCCOCCNC(=O)CC[C@H](NC(=O)CN2CCN(CC(=O)O)CCN(CC(=O)O)CCN(CC(=O)O)CC2)C(=O)NCCOCCOCCOCCOCCC(=O)N[C@@H](CCC(=O)NCC(=O)NCC(=O)NCC(=O)NCCCC[C@@H]2NC(=O)[C@@H](Cc3ccccc3)NC(=O)[C@H](CC(=O)O)NC(=O)CNC(=O)[C@H](CCCNC(=N)N)NC2=O)C(=O)NCC(=O)NCC(=O)NCC(=O)NCCCC[C@@H]2NC(=O)[C@@H](Cc3ccccc3)NC(=O)[C@H](CC(=O)O)NC(=O)CNC(=O)[C@H](CCCNC(=N)N)NC2=O)C(=O)NCC(=O)NCC(=O)NCC(=O)NCCCC[C@@H]2NC(=O)[C@@H](Cc3ccccc3)NC(=O)[C@H](CC(=O)O)NC(=O)CNC(=O)[C@H](CCCNC(=N)N)NC2=O)NC(=O)[C@@H](Cc2ccccc2)NC(=O)[C@H](CC(=O)O)NC(=O)CNC1=O [indium-111 labelled]; system = athymic nude mice, female, U-87 MG glioma xenograft, tumour and liver; conditions = intravenous, 0.5 h; scale = baseline: tumour over liver; endpoint = tumour to tissue ratio; result = 3.15 ± 0.81
Structure (SMILES) = COC(=O)C=CCCC(NC(=O)c1ccncc1C(=O)O)C(=O)NC(C(=O)N1CC(=O)CC1C(=O)NC(C(=O)NC(C(N)=O)C1CCCCC1)C1CCCCC1)C(C)(C)C (centres unmarked); tested on = Protein-glutamine gamma-glutamyltransferase 6 (Homo sapiens, UniProt O95932); assay = transamidation activity; scale = baseline: TG6 over FXIII-A2; endpoint = selectivity ratio; result = 1
Structure (SMILES) = CC(=O)NC(Cc1ccc(Br)c(Cl)c1)C(=O)N[C@@H](C)C(=O)N1CCC[C@H]1C(=O)N1CCC[C@H]1C(=O)N[C@@H](CCC(=O)O)C(=O)N[C@@H](Cc1c[nH]cn1)C(=O)N[C@@H](CO)C(=O)N[C@H](C(=O)N[C@@H](C)C(N)=O)[C@@H](C)OP(=O)(O)O (some centres unmarked); tested on = Homeodomain-interacting protein kinase 1 (HIPK1, Homo sapiens, UniProt Q86Z02); conditions = 10 µM; endpoint = inhibition; result = 0.99 ± 0.04%
Structure (SMILES) = C[C@@H](NC(=O)[C@@H](CCC(N)=O)NC(=O)[C@@H](C)NC(=O)[C@@H](CCCCN)NC(=O)[C@@H](CCC(N)=O)NC(=O)[C@@H](C)NC(=O)[C@@H](CCCCN)NC(=O)[C@@H](CCC(N)=O)NC(=O)[C@@H](C)NC(=O)[C@@H](CCC(N)=O)NC(=O)[C@@H](CCCCN)NC(=O)[C@@H](C)NC(=O)[C@@H](CCC(N)=O)NC(=O)[C@@H](CCCCN)NC(=O)[C@@H](C)NC(=O)[C@@H](CCC(N)=O)NC(=O)[C@@H](C)NC(=O)[C@@H](CCCCN)NC(=O)[C@@H](CCC(N)=O)NC(=O)[C@@H](C)NC(=O)[C@@H](CCCCN)NC(=O)[C@@H](CO)NC(=O)[C@@H](Cc1ccc(O)cc1)NC(=O)CNC(=O)CNC(=O)CN)C(=O)N[C@H](CCCCN)C(=O)N[C@H](CCC(N)=O)C(=O)N[C@H](C)C(=O)N[C@H](CCCCN)C(=O)N[C@H](CCC(N)=O)C(=O)O; assay = binding, SPR Langmuir fit; system = rVλ6Wil fibrils; conditions = 300 nM, pH 7.4; endpoint = association rate constant; result = 360000 M⁻¹ s⁻¹
Structure (SMILES) = N=C(N)NCCC[C@@H]1NC(=O)[C@H](CCCCNC(=O)CCOCCOCCOCCOCCNC(=O)CN2CCN(CC(=O)O)CCN(CC(=O)O)CCN(CC(=O)O)CC2)NC(=O)[C@@H](Cc2ccccc2)NC(=O)[C@H](CC(=O)O)NC(=O)CNC1=O [indium-111 labelled]; system = athymic nude mice, female, U-87 MG glioma xenograft, tumour and liver; conditions = intravenous, 72 h; scale = baseline: tumour over liver; endpoint = tumour to tissue ratio; result = 2.22 ± 0.48
Structure (SMILES) = C[C@H](NC(=O)[C@H](Cc1ccccc1)NC(=O)c1ccc(Br)cc1)C(=O)N[C@H](C(=O)N[C@@H](CCCC[N+](C)(C)C)C(=O)N[C@@H](CO)C(N)=O)C1CCCC1; tested on = Chromobox protein homolog 6 (Homo sapiens, UniProt O95503); assay = competitive fluorescence polarization; scale = baseline: Cbx7 over Chromobox protein homolog 6; endpoint = selectivity ratio; result = 9.1 fold
Structure (SMILES) = CC(=O)OC1OCC2C=C(C3(C)CCCCC3)CCC21 (single isomer, unassigned; (-)); tested on = Peptidyl-prolyl cis-trans isomerase F, mitochondrial (PPIF, Homo sapiens, UniProt P30405); assay = PPIase enzyme activity, inhibitor; scale = baseline: PPIF over cyclophilin A; endpoint = selectivity ratio; result = ~3 fold
Structure (SMILES) = C[n+]1ccc(C(=O)NC2CCC3(O)C4Cc5ccc(O)c6c5C3(CC[N+]4(C)CC3CC3)C2O6)cc1 (centres unmarked); tested on = Oprk1; scale = baseline: Ki kappa over Ki mu; endpoint = selectivity ratio; result = 0.7
Structure (SMILES) = Cc1ccc2c(n1)c(-c1cccc(S(C)(=O)=O)c1)c(C)n2C/C(F)=C/CN; tested on = Lysyl oxidase homolog 1 (LOXL1, Homo sapiens, UniProt Q08397); assay = inhibitor, Amplex Red; scale = baseline: IC50 LOXL1 over IC50 LOXL2; endpoint = selectivity ratio; result = > 80 fold
Structure (SMILES) = CCc1c(Cl)cccc1N1CCN(C[C@H](F)CCNC(=O)c2cc3ccccc3[nH]2)CC1; tested on = dopamine D3 and D2 receptors; assay = binding; scale = baseline: Ki D2 over Ki D3; endpoint = selectivity ratio; result = 217 fold
